{"data": "Measured values pooled from the literature", "note": "Each line is one published result; not all experiments were run side by side. Values joined by “and” are separate records of one study, mostly repeats; a detail may differ. ± gives the spread as reported."}
{"Structure (SMILES)": "CNC(=O)C[C@H](Cc1ccc(F)cc1)NC(=O)[C@@H](Cc1ccc(Cl)cc1Cl)NC(=O)[C@H](N)Cc1ccccc1C#N", "cell line": "Huh-7-ACE2", "assay": "CellTiter-Glo", "conditions": "0.00305 µM, 48 h, unit not given", "how to read": "relative to: DMSO", "endpoint": "viability", "value": "1.03 and 0.985 and 1.02"}
{"Structure (SMILES)": "Cc1cc(-c2ccc3ccccc3c2)nnc1NCCN1CCN(C)CC1", "cell line": "Caco-2", "conditions": "5 µM, 0.5 h, with: valspodar 1.0 µM", "endpoint": "Papp A-B", "value": "22 ×10⁻⁶ cm/s"}
{"Structure (SMILES)": "N=C(N)NCCC[C@H](NC(=O)[C@H](CCCNC(=N)N)NC(=O)[C@H](CCCNC(=N)N)NC(=O)[C@H](CCC(N)=O)NC(=O)[C@H](CCCNC(=N)N)NC(=O)[C@H](CCCNC(=N)N)NC(=O)[C@H](CCCCN)NC(=O)[C@H](CCCCN)NC(=O)[C@H](CCCNC(=N)N)NC(=O)CNC(=O)[C@H](Cc1ccc(O)cc1)NC(=O)[C@H](Cc1ccccc1)NC(=O)[C@H](Cc1ccccc1)NC(=O)[C@H](Cc1ccccc1)NC(=O)OCC1c2ccccc2-c2ccccc21)C(=O)O", "cell line": "RAW264.7", "assay": "flow cytometry", "conditions": "FITC-labelled compound, with: amiloride 3 mM, 1 h pretreatment", "how to read": "relative to: control", "endpoint": "cellular internalization", "value": "decreased"}
{"Structure (SMILES)": "CCO[C@H]1[C@H](O)[C@@H](N)[C@@H](O[C@H]2[C@H](O[C@@H]3O[C@H](CO)[C@@H](O[C@H]4O[C@@H](CN)[C@@H](O)[C@H](O)[C@H]4N)[C@H]3O)[C@@H](O)[C@H](N)C[C@@H]2N)O[C@@H]1CO", "cell line": "NIH 3T3", "conditions": "72 h, 10% fetal bovine serum", "endpoint": "25% lethal concentration", "value": "> 1200 µM"}
{"Structure (SMILES)": "Cc1ccc2[nH]c3c(c2c1)CCCC3NCCCc1ccccc1 (stereo not shown)", "cell line": "A549", "conditions": "50 µM, 23 h", "endpoint": "non-viable cells", "value": "4.8 ± 4.2%"}
{"Structure (SMILES)": "C/C=C(/C)C(=O)OC[C@H]1[C@@H](Cc2ccc(C(C)(C)C)cc2)CO[C@@H]1c1ccc(F)cc1", "cell line": "rat aortic VSMCs", "conditions": "30 µM, 24.5 h", "endpoint": "LDH release", "value": "41.4 ± 3.7%"}
{"Structure (SMILES)": "CC(=O)NCC(=O)N[C@@H](CCCNC(=N)N)C(=O)N[C@@H](CCCCN)C(=O)N[C@@H](CCCCN)C(=O)N[C@@H](CCCNC(=N)N)C(=O)N[C@@H](CCCNC(=N)N)C(=O)N[C@@H](CCC(N)=O)C(=O)N[C@@H](CCCNC(=N)N)C(=O)N[C@@H](CCCNC(=N)N)C(=O)N[C@@H](CCCNC(=N)N)C(=O)N1CCC[C@H]1C(=O)N[C@@H](CCC(N)=O)C(N)=O", "cell line": "HEK293T cells", "assay": "LC-MS", "system": "cytoplasmic fraction", "conditions": "20 µM, 2 h", "endpoint": "peptide concentration", "value": "313 pmol/mg protein and 339 pmol/mg protein and 423 pmol/mg protein"}
{"Structure (SMILES)": "CNC(=O)C[C@H](Cc1ccncc1)NC(=O)[C@@H](Cc1cccc(Br)c1)NC(=O)[C@@H](N)Cc1cccc(F)c1", "cell line": "Huh-7-ACE2", "assay": "CellTiter-Glo", "conditions": "1.562 µM, 48 h, unit not given", "how to read": "relative to: DMSO", "endpoint": "viability", "value": "1 and 0.987 and 0.948"}
{"Structure (SMILES)": "Fc1cccc(COc2ccc(Nc3ncnc4ccc(-c5cccc(N6CCNCC6)c5)cc34)cc2Cl)c1", "cell line": "NIH 3T3", "assay": "PrestoBlue", "conditions": "96 h", "endpoint": "TC50", "value": "19 µM"}
{"Structure (SMILES)": "CCOc1ccc(CN2CC[C@H]2C(=O)NC)cc1-c1cccc(C(=O)NC[C@@H]2COC(C)(C)O2)c1", "cell line": "Huh-7-ACE2", "assay": "CellTiter-Glo", "conditions": "12.5 µM, 48 h, unit not given", "how to read": "relative to: DMSO", "endpoint": "viability", "value": "0.833 and 0.869 and 0.798"}
{"Structure (SMILES)": "CN(C)CCCNC(=O)[C@@H]1NC(=O)[C@@H]2Cc3ccc(cc3)Oc3cc4cc(c3O)-c3ccc5c(c[nH]c5c3)C[C@@H](NC(=O)C(NC(=O)CCCCCN)c3ccc(O)cc3)C(=O)N[C@H](c3ccc(O)cc3)C(=O)N[C@H]4C(=O)N[C@@H](C(=O)N2C)c2ccc(cc2)Oc2cc1ccc2O (stereo partly shown)", "cell line": "human red blood cells", "conditions": "2 µg/mL, 1 h, 37 °C, 1% DMSO", "endpoint": "hemolysis", "value": "8.53%"}
{"Structure (SMILES)": "CNC(=O)CC[C@H](Cc1ccccc1)NC(=O)[C@@H](Cc1ccc(Cl)cc1Cl)NC(=O)[C@H](N)Cc1ccccc1[N+](=O)[O-]", "cell line": "Huh-7-ACE2", "assay": "CellTiter-Glo", "conditions": "0.0122 µM, 48 h, unit not given", "how to read": "relative to: DMSO", "endpoint": "viability", "value": "0.939 and 1.1 and 0.956"}
{"Structure (SMILES)": "CC(C)C[C@@H]1NC(=O)[C@H](Cc2ccccc2)N(C)C(=O)[C@H]2CCCN2C(=O)CNC(=O)[C@H](CC(C)C)N(C)C(=O)[C@H](CC(C)C)NC(=O)[C@H](Cc2ccccc2)N(C)C(=O)[C@H]2CCCN2C(=O)[C@H](CC(C)C)NC(=O)[C@H](C)N(C)C1=O", "cell line": "LLC-PK1", "system": "Caco-2", "endpoint": "Papp A→B", "value": "3.92 ×10⁻⁶ cm/s"}
{"note": "Some of these lines once more:"}
{"Structure (SMILES)": "Fc1cccc(COc2ccc(Nc3ncnc4ccc(-c5cccc(N6CCNCC6)c5)cc34)cc2Cl)c1", "cell line": "NIH 3T3", "assay": "PrestoBlue", "conditions": "96 h", "endpoint": "TC50", "value": "19 µM"}
